Experimental data from different studies.
Each line is one published result; not all experiments were run side by side. “And” joins repeats or separate records; there may be more than shown. ± marks the error that the study gave.
Protein kinase C-like 1: Protein kinase C-like 1 (Candida albicans, UniProt P43057)
HTR2C: 5-hydroxytryptamine receptor 2C (HTR2C, Homo sapiens, UniProt P28335)
BIRC3 BIR1 domain: Baculoviral IAP repeat-containing protein 3, BIR1 domain (BIRC3, Homo sapiens, UniProt Q13489)
GUK1: GUK1 (Homo sapiens, UniProt Q16774)
HTR2A: 5-hydroxytryptamine receptor 2A (HTR2A, Homo sapiens, UniProt P28223)
GHSR: Growth hormone secretagogue receptor type 1 (GHSR, Homo sapiens, UniProt Q92847)

SMILES	target	test	test system	setting	how to read	quantity	result
c1ccc(-c2n[nH]cc2-c2ccnc3ccccc23)nc1	Protein kinase C-like 1	kinase binding, competitor, MIB/MS competition, measured: PKC1	Candida albicans cell lysate	10 µM	reference: DMSO	log2 fold change	1.45
COc1cc(-c2cncc3c2CN(C)Cc2cc(N4CCNCC4)ccc2-3)cc(OC)c1OC	Rps6ka1 (Rattus norvegicus, UniProt Q63531)	kinase activity		1 µM, rat enzyme, together with: ATP 10 µM	reference: DMSO control	remaining activity	110%
N#Cc1ccc2c(-c3ccncc3)c(-c3ccc(F)cc3)nn2c1	Protein kinase C-like 1	kinase binding, competitor, MIB/MS competition, measured: PKC1	Candida albicans cell lysate	100 nM	reference: DMSO	log2 fold change	-0.196
COc1cccc(OC[C@@H]2CN(CCN3CCc4ccccc43)CCO2)c1	HTR2C	radioligand binding		concentration not given, together with: [3H]mesulergine		inhibition	78.1%
CC1(C)CC2(C)OC(=O)NC2(C)c2ccccc21 (centres unmarked)	BIRC3 BIR1 domain	binding, affinity selection mass spectrometry			reference: other proteins in batch	fold enrichment	0.918
NC/C(=C\F)COc1cccc(Cn2c(=S)[nH]c(=O)c3[nH]cnc32)c1	AOC3 (Homo sapiens, UniProt Q16853)	substrate turnover, SSAO/VAP-1 oxidation		concentration not given, unit not given	reference: DMSO control	enzyme activity	0.96 and 0.91 and 0.92 and 0.9 and 0.97
O=C(COP(=O)(O)O)[C@@H](O)[C@H](O)[C@H](O)COP(=O)(O)O	Prohibitin 1 (PHB1, Homo sapiens, UniProt P35232)	thermal proteome profiling	HepG2 cell lysate	57 over 37 °C	reference: compound over control	thermal stability ratio	0.679
c1ccc(OC[C@@H]2CN(CCN3CCc4ccccc43)CCO2)cc1	HTR2C	radioligand binding		concentration not given, together with: [3H]mesulergine		inhibition	70.5%
CC(C)C[C@H](NC(=O)[C@H]1O[C@@H]1C(=O)O)C(=O)NCCCCN=C(N)N	Cathepsin B (CTSB, Homo sapiens, UniProt P07858)	enzyme inactivation, irreversible inhibitor		pH 5.8, 37 °C, human liver enzyme		kinact/KI	18000 ± 11000 M⁻¹ s⁻¹
Nc1nc2c(ncn2[C@@H]2O[C@H](COP(=O)(O)O)[C@@H](O)[C@H]2O)c(=O)[nH]1	GUK1	enzyme activity, NADH-coupled		31.25 µM, together with: NaCl 10 mM		reaction velocity	0.0466 µM/s and 0.0377 µM/s and 0.0443 µM/s
COc1ccc2c(c1)C(=O)N(CCN1CCN(c3ccccc3OC)CC1)C2	HTR2C	radioligand binding		concentration not given, together with: [3H]mesulergine		inhibition	74.3%
Nc1ccc2cc3ccc(N)cc3nc2c1	Chymotrypsinogen A, activated (alpha-chymotrypsin) (Bos taurus, UniProt P00766)	isothermal titration calorimetry		concentration not given, 25 °C, together with: 0.5 M TMAO		binding enthalpy	-34 ± 0.884 kcal/mol
C[S+]([O-])c1ccc(-c2nc(-c3ccncc3)c(-c3ccc(F)cc3)[nH]2)cc1 (centres unmarked)	MAPK12 (Homo sapiens, UniProt P53778)	inhibitor, ADP-Glo		concentration not given		kinase activity	no effect
CCS(=O)(=O)N1CC(CC#N)(n2cc(-c3ncnc4[nH]ccc34)cn2)C1	ORM1 (Homo sapiens, UniProt P02763)			together with: Ca^2+		change in binding constant	34.5%
Clc1cncc(OC[C@H]2CN(CCN3CCc4ccccc43)CCO2)c1	HTR2A	radioligand binding		concentration not given, together with: [3H]ketanserin		inhibition	37.8%
O=C(O)c1ccc(Nc2ncc3c(n2)-c2ccc(Cl)cc2C(c2c(F)cccc2F)=NC3)cc1	human IKKα(h)	kinase activity		1 µM		remaining activity	114%
c1coc(-c2n[nH]cc2-c2ccnc3ccccc23)c1	Protein kinase C-like 1	kinase binding, MIB/MS competition	Candida albicans lysate	10 µM	reference: DMSO, negative = stronger binding	log2 fold change	-0.13
CCN1CCC[C@H]1CNC(=O)c1c(O)c(Cl)cc(Cl)c1OC	GPR84 (Homo sapiens, UniProt Q9NQS5)	β-arrestin recruitment, TANGO luminescence		concentration not given	reference: basal luminescence	log2 fold change	0.329
CCC1(O)CCCN(C(=O)c2ccc(-c3ccc(F)c(NC(=O)CCl)c3)cc2)C1 (centres unmarked)	DNA dC->dU-editing enzyme APOBEC-3B, C-terminal domain (Homo sapiens, UniProt Q9UH17)	covalent modifier, intact protein mass spectrometry		500 µM, 3 h, 20-fold molar excess		unmodified protein	0%
CC(O)(CC(=O)O)C(=O)O (centres unmarked)	Uncharacterized protein (Pelagibacter ubique, UniProt Q4FKX4)	differential scanning fluorimetry	Candidatus Pelagibacter ubique	in-house screen		thermal shift	2.7 °C
O=c1nc(SCc2cc(F)cc(C(F)(F)F)c2)nc(SCc2csc3ccc(Cl)cc23)[nH]1	TOP2A (Homo sapiens, UniProt P11388)	DNA cleavage		31.25 µM		mean linear DNA	3.83%
O=C(c1ccc(C(=O)N2CCC(N3CCCC3)CC2)c(Nc2ccccc2)c1)N1CCC(N2CCCC2)CC1	Lethal(3)malignant brain tumor-like protein 3, MBT domains (Homo sapiens, UniProt Q96JM7)	FRAP	human cells	0.5 µM		diffusion coefficient	0.296 µm2/s
C[C@H](O)c1cnc(NS(=O)(=O)c2ccc(C(F)(F)F)c(Cl)c2)nc1	17-beta-hydroxysteroid dehydrogenase 13 (Homo sapiens, UniProt Q7Z5P4)	substrate, NADH fluorescence				Km	29 µM
O=C(CN1CCO[C@H](COc2ccccc2)C1)N1CCc2ccccc21	HTR7 (Homo sapiens, UniProt P34969)	radioligand binding		concentration not given, together with: [3H]LSD		inhibition	10.4%
NC(=O)C1=CN([C@@H]2O[C@H](COP(=O)(O)OP(=O)(O)OC[C@H]3O[C@@H](n4cnc5c(N)ncnc54)[C@H](O)[C@@H]3O)[C@@H](O)[C@H]2O)C=CC1	FSP1, ancestral	substrate		co-substrate fixed		Km	13.9 ± 2.39 µM

SMILES	target	test	test system	setting	how to read	quantity	result
Oc1ccc(/C=C/c2cc(O)cc(O)c2)cc1	O-methyltransferase (Sorghum bicolor, UniProt A0A1B6PFV1)	ITC		concentration not given, endothermic site, two-site model, together with: SFG		binding stoichiometry	0.39
CN(C)CC#Cc1ccc2[nH]c3c(c2c1)-c1nc(N)ncc1CCC3	RIOK2 (Homo sapiens, UniProt Q9BVS4)	DiscoverX scanMAX		1 µM	reference: control	remaining binding	32%
O=C1Nc2c(ccc(Cl)c2Cl)C1=NO	KCNN4/CALM1 (Homo sapiens, UniProt O15554+P0DP23, A279G)	whole-cell patch clamp	A279G mutant	10 µM, together with: calcium 250 nM		current	no effect
Cc1cccc(C[C@H](NC(=O)OCc2ccccc2)C(=O)N[C@@H](CC(C)C)C(=O)N[C@H](B(O)O)C(C)C)c1	Serine protease HTRA1 (Homo sapiens, UniProt Q92743)	enzyme activity, inhibitor			reference: 5	fold increase in potency	9 fold
Cc1cc(Cl)cc(C)c1OCC(=O)NC(C)C	SLC6A19 (Homo sapiens, UniProt Q695T7)	inhibitor, FLIPR membrane potential	CHO-BC cells	30 µM, together with: L-leucine 1.5 mM	reference: cinromide	activity	83 ± 4%
Cc1cnc(Nc2ccc(C(=O)NC3CCN(C(=O)COCCOCCOCC(=O)N4CCC(NC(=O)c5ccc(Nc6ncc(C)c(Nc7ccc(Cl)c(NS(=O)(=O)C(C)(C)C)c7)n6)cc5F)CC4)CC3)c(F)c2)nc1Nc1ccc(Cl)c(NS(=O)(=O)C(C)(C)C)c1	human BRD4 and BRDT bromodomains	binding, BromoScan			reference: Kd BRD4 over Kd BRDT	selectivity ratio	8 fold
Nc1ncnc2c1ncn2[C@@H]1O[C@H](CO[P@](=O)(O)O[P@](=O)(O)O[P@@](=O)(O)S)[C@@H](O)[C@H]1O	GUK1	binding, isothermal titration calorimetry		molar ratio 0.9041, fitted curve		ΔH	-1.12 kcal/mol
Nc1ncnc2c1ncn2[C@@H]1O[C@H](COP(=O)(O)CP(=O)(O)OP(=O)(O)O)[C@@H](O)[C@H]1O	P2X purinoceptor 1 (P2RX1, Homo sapiens, UniProt P51575, R292A)	calcium influx		3.16 µM	reference: ionomycin response	calcium influx	9.69% and 4.15% and 2.64% and 1.65%
Nc1ccc(C(=O)O)cc1	BEST1, with wild-type BEST1 (Homo sapiens, UniProt O76090, L234P)	ion current, whole-cell patch clamp	HEK293 co-expressing mutant and wild-type	concentration not given, voltage -80 mV		current density	-41.7 pA/pF and -6.74 pA/pF and -12.3 pA/pF and -20.7 pA/pF and -17.2 pA/pF and -10.8 pA/pF
Cc1ccccc1C1CC(=O)c2c(C)nc(N)nc2C1 (centres unmarked)	RFWD3 (Homo sapiens, UniProt Q6PCD5)	binding, affinity selection mass spectrometry			reference: other proteins in batch	fold enrichment	0.895
CC[C@@H]1[C@H](F)C(=O)N[C@@H]1COc1nccc2cc(C(N)=O)c(OC)cc12	PIKFYVE (Homo sapiens, UniProt Q9Y2I7)	ATP probe binding, KiNativ profiling, measured: ATP loop probe site	THP-1 cell lysate	0.2 mM		inhibition	-0.0616%
CCCCCC(O)C(CC=O)SC[C@H](NC(C)=O)C(=O)O (some centres unmarked)	N-acyl-aromatic-L-amino acid amidohydrolase (carboxylate-forming) (Acy3, Mus musculus, UniProt Q91XE4)	substrate, fluorescamine		together with: Co2+ 0.1 mM		Km	530 µM
Cc1ccc(N2CC(C(N)=O)CC2=O)cc1 (centres unmarked)	BIRC3 BIR1 domain	binding, affinity selection mass spectrometry			reference: other proteins in batch	fold enrichment	1.13
C=CC(=O)N1CCC(COCC(=O)N2CCN(c3nc(-c4cnc(N)nc4C(F)F)nc(N4CCOC[C@@H]4C)n3)CC2)CC1	PRKD3 (Homo sapiens, UniProt O94806)	KINOMEscan		1 µM		remaining binding	100%
N[C@@H](CCC(=O)O)C(=O)O	uncharacterized protein (Ixodes scapularis, UniProt A0A0N9E2I2)	ion current, agonist	Xenopus oocytes	no modulator present	reference: 1 mM compound response	Emax	140 ± 7%
[Cl-].[K+]	GUK1	enzyme activity, NADH-coupled		90 mM		reaction velocity	-0.0169 µM/s and -0.0117 µM/s and 0.000403 µM/s
Nc1ncnc2c1ncn2[C@@H]1O[C@H](COP(=O)(O)OP(=O)(O)OP(=O)(O)O)[C@@H](O)[C@H]1O	Hexokinase-3 (HK3, Homo sapiens, UniProt P52790, E254A)	substrate		mutant E254A, together with: glucose 0.5 mM		kcat	71 ± 2 s⁻¹
O=S(=O)(O)C1CCNCC1	SLC6A6 (Homo sapiens, UniProt P31641, Y138A)	binding, microscale thermophoresis		37.6 nM, fitted curve	higher = more binding	fraction bound	0
Cc1ccc(C(=O)Nc2ccc3ccccc3c2)o1	OTOP1 (Homo sapiens, UniProt Q7RTM1)	proton current, potentiator, whole-cell patch-clamp	HEK-293T	10 µM, pH 5.5	reference: current before compound	current potentiation	1.62 fold
COc1ccc2c(c1)CN(CCCN1CCN(c3ccccc3OC)CC1)C2=O	HTR2A	radioligand binding		concentration not given, together with: [3H]ketanserin		inhibition	77.9%
Cc1cccc(N2CC(C(=O)O)CC2=O)c1 (centres unmarked)	Histone acetyltransferase type B catalytic subunit (Homo sapiens, UniProt O14929)	binding, affinity selection mass spectrometry			reference: other proteins in batch	log fold enrichment	0.0418
OCc1ccc(-c2nn(Cc3ccncc3)c3ccccc23)o1	SULT1A1 (Homo sapiens, UniProt P50225)	substrate, colorimetric		100 µM	reference: benzyl alcohol	relative sulfonation activity	< 2 fold
[H]/N=C(/N)NCC(=O)O	SLC6A6 (Homo sapiens, UniProt P31641, L306A)	binding, microscale thermophoresis		122 nM, room temperature, together with: 50 nM labelled protein	higher = more binding	normalised MST signal	0.0535
C[C@@H](O)CNC(C)(C)CC(=O)N[C@@H]1CCc2ccccc2N(Cc2ccc(-c3ccccc3-c3nn[nH]n3)cc2)C1=O	GHSR	calcium mobilization	HEK293, stably transfected			Hill slope	1
CN1CCN(c2cc(-c3ccncc3)c(-c3ccc4ccccc4c3)nn2)CC1	GHSR	agonist, FLIPR		12.5 µM		activation	-3.7%

For quick reference, copied from above:
SMILES	target	test	test system	setting	how to read	quantity	result
N[C@@H](CCC(=O)O)C(=O)O	uncharacterized protein (Ixodes scapularis, UniProt A0A0N9E2I2)	ion current, agonist	Xenopus oocytes	no modulator present	reference: 1 mM compound response	Emax	140 ± 7%
[Cl-].[K+]	GUK1	enzyme activity, NADH-coupled		90 mM		reaction velocity	-0.0169 µM/s and -0.0117 µM/s and 0.000403 µM/s
Nc1ncnc2c1ncn2[C@@H]1O[C@H](COP(=O)(O)OP(=O)(O)OP(=O)(O)O)[C@@H](O)[C@H]1O	Hexokinase-3 (HK3, Homo sapiens, UniProt P52790, E254A)	substrate		mutant E254A, together with: glucose 0.5 mM		kcat	71 ± 2 s⁻¹
O=S(=O)(O)C1CCNCC1	SLC6A6 (Homo sapiens, UniProt P31641, Y138A)	binding, microscale thermophoresis		37.6 nM, fitted curve	higher = more binding	fraction bound	0
